Experimental data collected from several papers.
Every numbered part comes from another study and shows a few of its results, in no order. pIC50: −log10 of the molar value.
Sequence of UniProt Q9UQM7 (whole entry, looked up): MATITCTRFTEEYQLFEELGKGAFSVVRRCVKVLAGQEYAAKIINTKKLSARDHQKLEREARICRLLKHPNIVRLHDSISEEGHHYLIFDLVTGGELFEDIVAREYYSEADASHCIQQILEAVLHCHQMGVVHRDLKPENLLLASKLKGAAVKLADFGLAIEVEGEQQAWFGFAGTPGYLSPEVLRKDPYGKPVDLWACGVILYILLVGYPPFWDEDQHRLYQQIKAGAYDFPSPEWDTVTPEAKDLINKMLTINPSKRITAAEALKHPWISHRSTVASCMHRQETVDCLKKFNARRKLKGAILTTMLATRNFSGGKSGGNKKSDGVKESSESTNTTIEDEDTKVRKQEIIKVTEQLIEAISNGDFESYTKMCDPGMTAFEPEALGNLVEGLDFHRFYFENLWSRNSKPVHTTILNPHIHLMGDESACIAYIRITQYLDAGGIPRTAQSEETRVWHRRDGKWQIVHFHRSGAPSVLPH
Sequence of UniProt P47898 (whole entry, looked up): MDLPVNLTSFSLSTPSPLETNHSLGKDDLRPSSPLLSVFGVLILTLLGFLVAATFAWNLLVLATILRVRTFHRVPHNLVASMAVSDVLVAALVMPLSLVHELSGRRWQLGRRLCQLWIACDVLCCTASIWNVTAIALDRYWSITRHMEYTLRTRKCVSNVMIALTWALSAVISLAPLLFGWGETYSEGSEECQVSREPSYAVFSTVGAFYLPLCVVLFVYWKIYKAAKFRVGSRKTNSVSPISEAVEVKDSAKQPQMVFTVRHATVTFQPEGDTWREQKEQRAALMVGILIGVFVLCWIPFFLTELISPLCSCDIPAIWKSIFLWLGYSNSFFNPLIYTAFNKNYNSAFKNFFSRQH
Sequence of UniProt P08473 (whole entry, looked up): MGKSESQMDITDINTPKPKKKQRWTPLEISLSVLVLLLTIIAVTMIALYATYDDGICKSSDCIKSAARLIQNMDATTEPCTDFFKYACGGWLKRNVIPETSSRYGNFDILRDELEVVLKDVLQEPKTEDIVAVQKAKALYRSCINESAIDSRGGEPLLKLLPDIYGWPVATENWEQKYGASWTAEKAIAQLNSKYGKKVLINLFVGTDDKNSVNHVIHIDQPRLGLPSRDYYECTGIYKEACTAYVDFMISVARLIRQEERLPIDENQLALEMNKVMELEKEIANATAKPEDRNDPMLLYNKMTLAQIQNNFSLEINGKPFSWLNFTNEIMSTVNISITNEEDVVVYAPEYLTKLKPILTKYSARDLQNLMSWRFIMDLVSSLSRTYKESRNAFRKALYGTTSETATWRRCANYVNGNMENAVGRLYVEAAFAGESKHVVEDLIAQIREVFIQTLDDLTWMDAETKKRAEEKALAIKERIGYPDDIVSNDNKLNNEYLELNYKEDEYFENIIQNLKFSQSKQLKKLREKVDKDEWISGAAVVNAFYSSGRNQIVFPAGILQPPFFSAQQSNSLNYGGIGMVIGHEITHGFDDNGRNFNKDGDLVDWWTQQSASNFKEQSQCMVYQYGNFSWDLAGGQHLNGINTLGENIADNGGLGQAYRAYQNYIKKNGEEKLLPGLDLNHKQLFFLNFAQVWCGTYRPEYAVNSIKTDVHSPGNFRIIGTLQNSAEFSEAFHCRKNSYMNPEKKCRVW
Sequence of UniProt P62344 (whole entry, looked up): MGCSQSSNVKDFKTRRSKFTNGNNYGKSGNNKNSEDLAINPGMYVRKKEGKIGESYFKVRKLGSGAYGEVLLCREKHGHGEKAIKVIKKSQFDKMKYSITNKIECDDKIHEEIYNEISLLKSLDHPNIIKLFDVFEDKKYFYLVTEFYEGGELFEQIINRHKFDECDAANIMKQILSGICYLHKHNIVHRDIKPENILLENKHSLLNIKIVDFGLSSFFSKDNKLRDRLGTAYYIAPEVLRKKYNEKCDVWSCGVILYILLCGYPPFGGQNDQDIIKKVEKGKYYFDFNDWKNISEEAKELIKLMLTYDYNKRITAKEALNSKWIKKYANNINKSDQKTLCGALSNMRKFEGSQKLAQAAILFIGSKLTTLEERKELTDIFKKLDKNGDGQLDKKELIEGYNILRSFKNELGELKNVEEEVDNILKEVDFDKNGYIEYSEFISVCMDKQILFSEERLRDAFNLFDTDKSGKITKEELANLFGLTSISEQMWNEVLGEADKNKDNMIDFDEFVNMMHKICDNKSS

Block 1
Target: CRBN/Zinc finger protein Helios (Homo sapiens, UniProt Q96SW2+Q9UKS7)
Sequence of UniProt Q96SW2 (whole entry, looked up): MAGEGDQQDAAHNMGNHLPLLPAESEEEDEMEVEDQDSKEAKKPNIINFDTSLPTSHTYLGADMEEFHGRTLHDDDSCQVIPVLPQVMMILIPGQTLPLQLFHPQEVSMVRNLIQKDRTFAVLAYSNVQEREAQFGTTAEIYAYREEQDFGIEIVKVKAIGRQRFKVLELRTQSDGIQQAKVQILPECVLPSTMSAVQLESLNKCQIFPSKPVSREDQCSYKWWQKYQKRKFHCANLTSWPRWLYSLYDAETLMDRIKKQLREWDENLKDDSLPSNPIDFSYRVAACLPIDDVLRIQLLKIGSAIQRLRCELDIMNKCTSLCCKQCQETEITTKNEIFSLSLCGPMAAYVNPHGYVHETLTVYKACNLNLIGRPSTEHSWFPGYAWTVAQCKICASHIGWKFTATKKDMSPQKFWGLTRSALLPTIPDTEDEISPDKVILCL
Sequence of UniProt Q9UKS7 (whole entry, looked up): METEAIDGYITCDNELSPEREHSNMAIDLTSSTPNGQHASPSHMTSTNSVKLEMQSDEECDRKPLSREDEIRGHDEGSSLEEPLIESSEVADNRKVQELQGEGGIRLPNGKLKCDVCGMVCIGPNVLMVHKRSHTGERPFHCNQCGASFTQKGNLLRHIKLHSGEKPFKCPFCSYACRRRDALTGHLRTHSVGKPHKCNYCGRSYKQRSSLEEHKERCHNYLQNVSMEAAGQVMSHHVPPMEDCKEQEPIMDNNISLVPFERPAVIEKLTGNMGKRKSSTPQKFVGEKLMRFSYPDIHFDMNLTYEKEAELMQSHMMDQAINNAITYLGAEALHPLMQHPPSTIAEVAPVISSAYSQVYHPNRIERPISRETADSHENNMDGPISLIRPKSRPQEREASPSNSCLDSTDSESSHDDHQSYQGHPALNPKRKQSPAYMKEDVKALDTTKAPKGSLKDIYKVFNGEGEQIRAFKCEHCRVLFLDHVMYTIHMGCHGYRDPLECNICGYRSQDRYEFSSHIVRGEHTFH
Action: degrader
Technique: HiBiT
Cell line: HEK293
Tested at: 10000 nM
O=C1CCC(N2Cc3c(ccc4c3OCC43CCCN(Cc4ccccc4)CC3)C2=O)C(=O)N1 (centres unmarked) gave a protein remaining of 90.5%.
For O=C1CCC(N2Cc3c(ccc4c3OCC43CCN(Cc4ccccc4)C3)C2=O)C(=O)N1 (centres unmarked), the protein remaining was 67.4%.
O=C1CCC(N2Cc3c(ccc4c3OCC43CCN(Cc4ccccn4)CC3)C2=O)C(=O)N1 (centres unmarked) gave a protein remaining of 36%.

Other studies, line by line
The pIC50 of CC(C)C[C@H](NP(=O)(O)O[C@@H]1O[C@@H](C)[C@H](O)[C@@H](O)[C@H]1O)C(=O)N[C@@H](Cc1c[nH]c2ccccc12)C(=O)O is reported as 6.61 (Neprilysin (MME, Homo sapiens, UniProt P08473)).
With Cc1nccc(COC(=O)N2C[C@@H]3[C@@H](CNC(=O)c4ccc5[nH]nnc5c4)[C@@H]3C2)n1 the remaining binding was 100% (Calcium-dependent protein kinase 1 (CDPK1, Plasmodium falciparum, UniProt P62344); cell-free assay, competition with immobilised ligand; 1 µM).
C[C@H]1CC[C@@H]2N(C1)C[C@H]1[C@@H]3C[C@H]4[C@@H](C[C@@H](O)[C@H]5C[C@@H](O)CC[C@@]54C)[C@@H]3CC[C@@H]1[C@]2(C)O has an inhibition of -17% (Calcium/calmodulin-dependent protein kinase type II subunit alpha (CAMK2A, Homo sapiens, UniProt Q9UQM7); enzyme activity, inhibitor; 10 µM).
Under “log k' (60)”, CCOC(=O)[C@@H]1CSCC(=O)N[C@H](CC)C(=O)N(C)[C@@H](C)C(=O)N[C@@H](CC(C)C)C(=O)N(C)[C@H](C)C(=O)N(CC(C)C)CC(=O)N[C@@H](CC(C)C)C(=O)N(C)[C@H](C)C(=O)N[C@@H](CC(C)C)C(=O)N1C is recorded as 0.69 (PRP-column chromatography).
Cc1c(N2CCNCC2)nc2ccc(Br)cc2c1C(=O)NC[C@H](CCC(=O)O)c1ccccc1Cl has an inhibition of 11.3% (5-hydroxytryptamine receptor 5A (HTR5A, Homo sapiens, UniProt P47898); ligand displacement; 10 µM).
